Experimental data collected from several papers.
Numbered parts are unrelated; each lists some results of a single study.
UniProt P10721, sequence (whole entry, unmodified, looked up): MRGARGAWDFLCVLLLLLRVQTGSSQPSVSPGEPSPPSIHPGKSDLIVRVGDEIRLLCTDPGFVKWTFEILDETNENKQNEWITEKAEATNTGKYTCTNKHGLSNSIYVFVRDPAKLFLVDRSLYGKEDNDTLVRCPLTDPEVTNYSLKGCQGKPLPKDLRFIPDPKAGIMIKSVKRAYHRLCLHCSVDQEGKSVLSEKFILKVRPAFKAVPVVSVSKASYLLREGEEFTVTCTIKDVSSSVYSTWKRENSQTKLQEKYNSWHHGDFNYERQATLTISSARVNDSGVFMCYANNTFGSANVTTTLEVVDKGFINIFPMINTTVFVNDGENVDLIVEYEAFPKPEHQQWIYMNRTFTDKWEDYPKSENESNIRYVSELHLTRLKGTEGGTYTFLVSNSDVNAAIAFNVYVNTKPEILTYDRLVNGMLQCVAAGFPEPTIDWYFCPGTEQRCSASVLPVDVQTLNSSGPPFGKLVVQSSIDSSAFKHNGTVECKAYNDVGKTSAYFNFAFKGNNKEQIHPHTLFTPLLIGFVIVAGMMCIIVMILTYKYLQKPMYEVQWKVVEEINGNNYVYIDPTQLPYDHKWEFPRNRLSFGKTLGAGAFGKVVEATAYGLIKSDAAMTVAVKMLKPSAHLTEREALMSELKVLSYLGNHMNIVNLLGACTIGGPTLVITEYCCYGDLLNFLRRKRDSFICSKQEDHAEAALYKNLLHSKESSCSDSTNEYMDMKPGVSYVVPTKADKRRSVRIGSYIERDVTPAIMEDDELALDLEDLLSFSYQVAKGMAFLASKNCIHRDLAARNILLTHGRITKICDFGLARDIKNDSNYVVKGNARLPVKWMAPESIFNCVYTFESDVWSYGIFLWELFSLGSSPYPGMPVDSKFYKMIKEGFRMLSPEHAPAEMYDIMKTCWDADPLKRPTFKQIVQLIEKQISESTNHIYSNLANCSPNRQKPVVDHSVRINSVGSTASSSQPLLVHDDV
UniProt O43293, sequence (whole entry, looked up): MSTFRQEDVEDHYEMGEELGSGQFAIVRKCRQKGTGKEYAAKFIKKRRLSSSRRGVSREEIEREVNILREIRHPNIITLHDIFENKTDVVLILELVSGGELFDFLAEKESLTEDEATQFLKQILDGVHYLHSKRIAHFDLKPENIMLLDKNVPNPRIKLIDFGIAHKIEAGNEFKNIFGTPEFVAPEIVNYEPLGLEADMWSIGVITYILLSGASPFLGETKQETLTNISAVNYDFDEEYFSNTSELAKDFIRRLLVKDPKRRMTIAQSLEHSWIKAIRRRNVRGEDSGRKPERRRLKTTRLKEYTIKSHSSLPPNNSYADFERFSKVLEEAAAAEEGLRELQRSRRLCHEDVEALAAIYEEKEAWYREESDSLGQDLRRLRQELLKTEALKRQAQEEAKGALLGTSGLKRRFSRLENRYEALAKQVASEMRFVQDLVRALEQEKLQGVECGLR
UniProt O00506, sequence (whole entry, looked up): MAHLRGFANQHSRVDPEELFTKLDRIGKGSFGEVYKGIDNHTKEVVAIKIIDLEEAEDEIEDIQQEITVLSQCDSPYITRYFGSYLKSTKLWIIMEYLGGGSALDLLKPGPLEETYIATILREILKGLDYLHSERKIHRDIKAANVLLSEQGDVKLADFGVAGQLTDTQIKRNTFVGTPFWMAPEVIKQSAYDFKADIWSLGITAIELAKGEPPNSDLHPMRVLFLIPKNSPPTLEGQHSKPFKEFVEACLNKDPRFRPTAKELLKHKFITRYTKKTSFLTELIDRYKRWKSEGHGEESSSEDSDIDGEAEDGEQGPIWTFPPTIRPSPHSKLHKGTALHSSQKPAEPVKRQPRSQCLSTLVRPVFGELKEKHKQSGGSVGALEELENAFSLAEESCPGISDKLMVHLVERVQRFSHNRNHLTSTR
UniProt O75747, sequence (whole entry, looked up): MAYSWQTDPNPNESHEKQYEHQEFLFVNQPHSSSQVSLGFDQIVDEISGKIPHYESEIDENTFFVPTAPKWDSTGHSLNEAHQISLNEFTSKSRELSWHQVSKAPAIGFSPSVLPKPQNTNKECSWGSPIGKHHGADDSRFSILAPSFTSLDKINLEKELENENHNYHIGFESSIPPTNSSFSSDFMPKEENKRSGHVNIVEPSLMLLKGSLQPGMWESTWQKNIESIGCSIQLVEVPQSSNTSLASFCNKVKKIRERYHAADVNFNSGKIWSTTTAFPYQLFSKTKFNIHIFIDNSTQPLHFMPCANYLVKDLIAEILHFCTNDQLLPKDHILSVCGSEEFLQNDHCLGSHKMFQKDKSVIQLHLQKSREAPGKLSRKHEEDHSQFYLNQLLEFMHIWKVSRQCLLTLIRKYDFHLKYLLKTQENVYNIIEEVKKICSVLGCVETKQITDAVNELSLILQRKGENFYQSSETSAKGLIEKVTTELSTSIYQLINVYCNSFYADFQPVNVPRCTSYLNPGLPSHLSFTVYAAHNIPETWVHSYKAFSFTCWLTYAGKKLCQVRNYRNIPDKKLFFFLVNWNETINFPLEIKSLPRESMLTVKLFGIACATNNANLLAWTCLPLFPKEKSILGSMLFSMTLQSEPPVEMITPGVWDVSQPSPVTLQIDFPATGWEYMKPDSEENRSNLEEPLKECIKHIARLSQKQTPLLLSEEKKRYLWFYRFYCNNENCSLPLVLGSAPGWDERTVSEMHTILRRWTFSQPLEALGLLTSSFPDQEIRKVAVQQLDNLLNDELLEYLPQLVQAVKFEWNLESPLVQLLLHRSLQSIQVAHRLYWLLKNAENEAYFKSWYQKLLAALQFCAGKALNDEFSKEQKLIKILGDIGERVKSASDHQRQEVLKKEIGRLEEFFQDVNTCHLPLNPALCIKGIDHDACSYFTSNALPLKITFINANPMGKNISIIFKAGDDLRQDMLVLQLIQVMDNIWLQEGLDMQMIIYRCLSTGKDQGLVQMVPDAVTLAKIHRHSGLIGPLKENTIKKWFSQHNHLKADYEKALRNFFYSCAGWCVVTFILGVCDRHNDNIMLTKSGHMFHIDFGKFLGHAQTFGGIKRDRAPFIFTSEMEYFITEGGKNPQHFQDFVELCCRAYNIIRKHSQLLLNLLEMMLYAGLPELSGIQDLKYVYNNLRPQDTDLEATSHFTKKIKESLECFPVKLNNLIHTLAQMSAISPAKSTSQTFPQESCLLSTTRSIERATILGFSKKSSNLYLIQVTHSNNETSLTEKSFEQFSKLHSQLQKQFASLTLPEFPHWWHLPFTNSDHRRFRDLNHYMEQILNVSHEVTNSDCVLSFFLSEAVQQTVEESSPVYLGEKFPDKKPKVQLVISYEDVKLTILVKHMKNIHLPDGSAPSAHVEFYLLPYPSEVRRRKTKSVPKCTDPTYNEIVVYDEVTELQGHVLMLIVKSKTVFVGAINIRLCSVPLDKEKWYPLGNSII
UniProt O60331, sequence (whole entry, looked up): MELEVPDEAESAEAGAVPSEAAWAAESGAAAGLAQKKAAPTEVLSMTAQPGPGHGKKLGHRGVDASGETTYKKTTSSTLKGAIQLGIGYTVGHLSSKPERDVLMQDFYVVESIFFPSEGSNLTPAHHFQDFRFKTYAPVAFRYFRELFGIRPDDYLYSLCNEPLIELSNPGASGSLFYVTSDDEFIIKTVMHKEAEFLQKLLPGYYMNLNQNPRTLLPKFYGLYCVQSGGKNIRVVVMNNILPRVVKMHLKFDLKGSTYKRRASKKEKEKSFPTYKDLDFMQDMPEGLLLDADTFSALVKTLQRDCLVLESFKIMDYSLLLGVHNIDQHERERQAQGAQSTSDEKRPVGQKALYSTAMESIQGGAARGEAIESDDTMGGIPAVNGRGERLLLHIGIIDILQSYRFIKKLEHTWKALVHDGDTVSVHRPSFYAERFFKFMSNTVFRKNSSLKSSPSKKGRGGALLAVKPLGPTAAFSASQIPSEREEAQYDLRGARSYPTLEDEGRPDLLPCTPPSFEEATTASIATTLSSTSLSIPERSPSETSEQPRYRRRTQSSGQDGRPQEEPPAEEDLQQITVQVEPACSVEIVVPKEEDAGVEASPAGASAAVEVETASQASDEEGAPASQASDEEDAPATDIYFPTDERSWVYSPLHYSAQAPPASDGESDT

Series 1
Compound: CCS(=O)(=O)c1cc2cc(C[C@@](O)(CC(C)(C)c3ccc(F)cc3C(N)=O)C(F)(F)F)[nH]c2cn1
Read-out: cell-free assay
Technique: competition with immobilised ligand
Concentration: 1 µM
target | remaining binding [%]
PIK3C2G (Homo sapiens, UniProt O75747) | 100
ABL2 (Homo sapiens, UniProt P42684) | 88
PIM2 (Homo sapiens, UniProt Q9P1W9) | 99
MAP3K4 (Homo sapiens, UniProt Q9Y6R4) | 93
DAPK3 (Homo sapiens, UniProt O43293) | 100
KIT (Homo sapiens, UniProt P10721, V559D) | 100
HIPK1 (Homo sapiens, UniProt Q86Z02) | 90
CDK17 (Homo sapiens, UniProt Q00537) | 82
TAOK1 (Homo sapiens, UniProt Q7L7X3) | 73
EGFR (Homo sapiens, UniProt P00533, G719C) | 100
SGK2 (Homo sapiens, UniProt Q9HBY8) | 57
Tyrosine-protein kinase JAK1, JH1 (JAK1, Homo sapiens, UniProt P23458) | 89

Series 2
Compound: O=C(Nc1ccccc1)Nc1cccc(Oc2ccc3nccn3n2)c1
Concentration: 1 µM
target | assay | conditions | scale | remaining binding [%]
AKT3 (Homo sapiens, UniProt Q9Y243) | competitive binding panel |  | reference: vehicle | 80
LIM domain kinase 2 (LIMK2, Homo sapiens, UniProt P53671) | competitive binding panel |  | reference: vehicle | 100
ABL1 (Homo sapiens, UniProt P00519, M351T) | competitive binding panel |  | reference: vehicle | 100
STK25 (Homo sapiens, UniProt O00506) | competitive binding panel, measured: YSK1 |  | reference: vehicle | 100
EPHA7 (Homo sapiens, UniProt Q15375) | competitive binding panel |  | reference: vehicle | 100
CDK4 (Homo sapiens, UniProt P11802) | competitive binding scan | with: cyclin D1 |  | 76
RIPK4 (Homo sapiens, UniProt P57078) | competitive binding panel |  | reference: vehicle | 100
KIT (Homo sapiens, UniProt P10721, V559D/V654A) | competitive binding panel |  | reference: vehicle | 18
PTK2B (Homo sapiens, UniProt Q14289) | competitive binding panel, measured: PYK2 |  | reference: vehicle | 40
PIP5K1C (Homo sapiens, UniProt O60331) | competitive binding panel |  | reference: vehicle | 51
IRAK4 (Homo sapiens, UniProt Q9NWZ3) | competitive binding panel |  | reference: vehicle | 100
PIM3 (Homo sapiens, UniProt Q86V86) | competitive binding panel |  | reference: vehicle | 100
GRK3 (Homo sapiens, UniProt P35626) | competitive binding panel |  | reference: vehicle | 100

Series 3
Target: Serine/threonine-protein kinase 24 (STK24, Homo sapiens, UniProt Q9Y6E0)
UniProt Q9Y6E0, sequence (whole entry, looked up): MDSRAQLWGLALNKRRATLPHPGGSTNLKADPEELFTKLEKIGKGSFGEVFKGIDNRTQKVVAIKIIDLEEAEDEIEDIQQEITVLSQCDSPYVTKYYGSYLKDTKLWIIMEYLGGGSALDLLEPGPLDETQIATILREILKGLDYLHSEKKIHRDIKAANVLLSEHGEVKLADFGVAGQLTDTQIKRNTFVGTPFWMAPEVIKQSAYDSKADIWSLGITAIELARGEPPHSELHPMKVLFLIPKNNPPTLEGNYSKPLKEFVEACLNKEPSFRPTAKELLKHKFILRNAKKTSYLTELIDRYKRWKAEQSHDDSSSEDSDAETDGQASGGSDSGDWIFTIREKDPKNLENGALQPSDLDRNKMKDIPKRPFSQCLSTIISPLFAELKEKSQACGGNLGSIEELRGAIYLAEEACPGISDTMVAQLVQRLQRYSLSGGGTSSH
Read-out: enzyme activity
Mode: inhibitor
Concentration: 0.5 µM
Reference: control
SMILES | remaining activity
C[C@@H]1CCN(C(=O)CC#N)C[C@@H]1N(C)c1ncnc2[nH]ccc12 | 96.1%
Cc1cn(-c2cc(NC(=O)c3ccc(C)c(Nc4nccc(-c5cccnc5)n4)c3)cc(C(F)(F)F)c2)cn1 | 104%
c1ccc(-c2cnc(Nc3ccc(OCCN4CCCC4)cc3)s2)cc1 | 99.6%
Cc1nc2cc3nc(-c4cccs4)cnc3cc2n1C | 103%
O=c1cc(-c2cccc3c2Sc2ccccc2S3)oc(N2CCOCC2)c1 | 97.8%
N#C/C(=C\c1ccc(O)c(O)c1)C(=O)NCc1ccccc1 | 100%
COc1cc2c(cc1OC)-c1[nH]nc(Nc3cccc(F)c3)c1C2 | 99.9%
Cc1cc2ncc(-c3ccccc3)nc2cc1C | 94.5%
CCOc1nc(NC(=O)Cc2cc(OC)ccc2OC)cc(N)c1C#N | 99.5%
CCN(CC)CCNC(=O)c1c(C)[nH]c(/C=C2\C(=O)Nc3ccc(Cl)cc32)c1C | 22.2%
CN(C)C[C@H]1CCn2c(c(C3=C(c4cn(C)c5ccccc45)C(=O)NC3=O)c3ccccc32)C1 | 66.5%
Cn1nc2c3c(cccc31)C(=O)c1ccccc1-2 | 98.6%
N#Cc1c(NC(=O)c2cccc3ccccc23)sc2c1CCCC2 | 90.3%
Ic1cccc(CSc2nnc(-c3ccncc3)o2)c1 | 108%
O=C1C(Cl)=C(N2C(=O)CCC2=O)C(=O)c2ccccc21 | 87%
CCN(CC)C(=O)c1ccc(Nc2nc(OCC3CCCCC3)c3[nH]cnc3n2)cc1 | 84.5%
COc1cc2ncnc(Nc3cccc(Cl)c3)c2cc1OC | 96.8%
c1ccc(-c2[nH]ncc2-c2ccnc3ccccc23)nc1 | 96.8%
O=C(NC(NC(=S)Nc1ccc(F)c([N+](=O)[O-])c1)C(Cl)(Cl)Cl)C(c1ccccc1)c1ccccc1 (centres unmarked) | 92.8%
COc1cc2ncnc(Nc3ccc(O)c(Br)c3)c2cc1OC | 91.7%
O=C1c2ccccc2-c2n[nH]c3cccc1c23 | 77.5%
CN([C@@H](Cc1ccc(OS(=O)(=O)c2cccc3cnccc23)cc1)C(=O)N1CCN(c2ccccc2)CC1)S(=O)(=O)c1cccc2cnccc12 | 102%
O=C(Nc1cccc(Nc2nccc(Nc3cccc(C(F)(F)F)c3)n2)c1)C1CC1 | 98.3%
Nc1cccc(-c2cc3c(Oc4cccc(O)c4)ncnc3[nH]2)c1 | 64.2%

Series 4
Target: Calcium/calmodulin-dependent protein kinase type II subunit alpha (CAMK2A, Homo sapiens, UniProt Q9UQM7)
UniProt Q9UQM7, sequence (whole entry, looked up): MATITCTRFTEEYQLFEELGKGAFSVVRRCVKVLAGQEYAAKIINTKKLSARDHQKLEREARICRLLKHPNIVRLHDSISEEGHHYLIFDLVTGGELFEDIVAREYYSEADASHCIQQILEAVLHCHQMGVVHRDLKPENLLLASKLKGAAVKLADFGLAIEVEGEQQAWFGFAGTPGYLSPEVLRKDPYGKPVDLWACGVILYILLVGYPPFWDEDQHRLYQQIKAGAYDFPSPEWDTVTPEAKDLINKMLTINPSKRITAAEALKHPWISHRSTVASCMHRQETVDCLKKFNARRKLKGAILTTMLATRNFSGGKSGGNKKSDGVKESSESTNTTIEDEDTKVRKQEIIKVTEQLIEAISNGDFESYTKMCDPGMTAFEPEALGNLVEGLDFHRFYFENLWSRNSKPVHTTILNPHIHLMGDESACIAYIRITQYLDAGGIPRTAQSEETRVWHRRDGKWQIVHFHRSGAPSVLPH
Read-out: enzyme activity
Mode: inhibitor
Concentration: 10 µM
Structure (SMILES) | inhibition
O=C(O)c1ccc(-n2nc(-c3ccccc3O)nc2-c2ccccc2O)cc1 | 4%
CCCCCCCC/C=C\CCCCCCCC(N)=O | -22%
OC[C@H]1O[C@@H](Oc2cc(/C=C/c3cc(O)cc(O)c3)ccc2O)[C@H](O)[C@@H](O)[C@@H]1O | -9%
CCCCCCCCCCCCCCCCCCCCCCC(=O)O | -30%
COc1cc2cc(c1Cl)N(C)C(=O)C[C@H](OC(=O)[C@H](C)N(C)C(C)=O)[C@]1(C)O[C@H]1[C@H](C)[C@@H]1C[C@@](O)(NC(=O)O1)[C@H](OC)/C=C/C=C(\C)C2 | -10%
N[C@H](C(=O)O)[C@H](O)c1ccc(O)c(O)c1 | -10%
CCOC(=O)[C@H](CCc1ccccc1)N[C@@H](C)C(=O)N1C(=O)N(C)C[C@H]1C(=O)O | -1%
O=C(O)C(O)Cc1ccc(O)c(O)c1 (centres unmarked) | -18%
O=c1[nH]c(=O)n([C@H]2C[C@H](O)[C@@H](CO)O2)cc1I | -10%
CC(C)CCC[C@@H](C)[C@H]1CC[C@H]2[C@@H]3C(=O)C=C4C[C@@H](O)CC[C@]4(C)[C@H]3CC[C@]12C | -12%
